Assay results pooled from the literature.
Every numbered part comes from another study and shows a few of its results, in no order. Changes are numbered by the printed parent chain.

Sample 1 — technique: DHFR PCA, deep sequencing; medium: yeast; together with: (+)-ABA 17 µM; reference: wild-type fitted maximum; direction: higher = stronger binding
Target: ABI1, truncated, D143A, DHFR fusion (Arabidopsis thaliana)
Setting: methotrexate growth selection, single substitutions
Parent: PYL1, truncated, DHFR fusion (Arabidopsis thaliana); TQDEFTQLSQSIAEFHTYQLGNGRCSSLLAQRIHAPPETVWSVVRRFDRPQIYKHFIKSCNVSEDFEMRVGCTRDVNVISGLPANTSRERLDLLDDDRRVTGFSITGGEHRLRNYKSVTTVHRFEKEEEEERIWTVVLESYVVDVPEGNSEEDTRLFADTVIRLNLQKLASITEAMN
Variant	relative binding score [%]
E4I	81.3
D159R	-4.09
L156V	84.1
S9N	71.4
M176W	79.6
E127G	92.9
N22W	70.8
P83W	3.48
L93G	-2.15
D48W	5.87
N22K	87
T101E	-2.86
T135D	3.63
R90E	41.4
H122S	23.2
R24K	87
G81R	-5.51
D144A	27.8
E64D	88.5
R99Y	103
Y141R	-9.47
D159A	19.4

Sample 2 — target: CCNB3, cyclin fold, Cln2 fusion (human); technique: yeast growth competition, sequencing; medium: yeast; setting: weak parent motif; reference: not given; direction: higher = stronger binding
Parent: MASTL docking peptide (human); PMIAKNLMCELDE; partner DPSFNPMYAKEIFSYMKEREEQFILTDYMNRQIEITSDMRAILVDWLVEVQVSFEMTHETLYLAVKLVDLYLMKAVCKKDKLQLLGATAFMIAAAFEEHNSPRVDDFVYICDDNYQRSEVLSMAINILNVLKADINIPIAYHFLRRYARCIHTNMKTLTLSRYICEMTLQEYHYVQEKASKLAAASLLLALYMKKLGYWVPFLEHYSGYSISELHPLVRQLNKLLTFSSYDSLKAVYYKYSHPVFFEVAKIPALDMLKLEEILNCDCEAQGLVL
Variant	normalised enrichment score
L7R	-0.137
I3M	0.0792
M8E	0.142
L11P	0.00275
N6A	-0.226
E10V	0.0993
L11G	-0.119
K5L	0.165
M2V	-0.0788
L11T	-0.163
A4I	0.143
A4L	0.511
D12N	-0.365
K5R	0.0826
A4F	0.183
A4H	0.00361
L7I	0.161
C9M	-0.0948
M2H	-0.00907
M8V	0.0492
L7A	-0.0721
M2N	-0.192
D12V	0.0527
N6F	-0.0636
C9I	-0.418

Sample 3 — technique: universal PBM; molecule type: double-stranded DNA, one strand shown; medium: in vitro; tested at: 600 nM; direction: higher = stronger binding
Target: Sal-like protein 4, full length isoform A (SALL4, Homo sapiens, UniProt Q9UJQ4, residues 1-1053)
Sequence of UniProt Q9UJQ4 (whole entry, looked up): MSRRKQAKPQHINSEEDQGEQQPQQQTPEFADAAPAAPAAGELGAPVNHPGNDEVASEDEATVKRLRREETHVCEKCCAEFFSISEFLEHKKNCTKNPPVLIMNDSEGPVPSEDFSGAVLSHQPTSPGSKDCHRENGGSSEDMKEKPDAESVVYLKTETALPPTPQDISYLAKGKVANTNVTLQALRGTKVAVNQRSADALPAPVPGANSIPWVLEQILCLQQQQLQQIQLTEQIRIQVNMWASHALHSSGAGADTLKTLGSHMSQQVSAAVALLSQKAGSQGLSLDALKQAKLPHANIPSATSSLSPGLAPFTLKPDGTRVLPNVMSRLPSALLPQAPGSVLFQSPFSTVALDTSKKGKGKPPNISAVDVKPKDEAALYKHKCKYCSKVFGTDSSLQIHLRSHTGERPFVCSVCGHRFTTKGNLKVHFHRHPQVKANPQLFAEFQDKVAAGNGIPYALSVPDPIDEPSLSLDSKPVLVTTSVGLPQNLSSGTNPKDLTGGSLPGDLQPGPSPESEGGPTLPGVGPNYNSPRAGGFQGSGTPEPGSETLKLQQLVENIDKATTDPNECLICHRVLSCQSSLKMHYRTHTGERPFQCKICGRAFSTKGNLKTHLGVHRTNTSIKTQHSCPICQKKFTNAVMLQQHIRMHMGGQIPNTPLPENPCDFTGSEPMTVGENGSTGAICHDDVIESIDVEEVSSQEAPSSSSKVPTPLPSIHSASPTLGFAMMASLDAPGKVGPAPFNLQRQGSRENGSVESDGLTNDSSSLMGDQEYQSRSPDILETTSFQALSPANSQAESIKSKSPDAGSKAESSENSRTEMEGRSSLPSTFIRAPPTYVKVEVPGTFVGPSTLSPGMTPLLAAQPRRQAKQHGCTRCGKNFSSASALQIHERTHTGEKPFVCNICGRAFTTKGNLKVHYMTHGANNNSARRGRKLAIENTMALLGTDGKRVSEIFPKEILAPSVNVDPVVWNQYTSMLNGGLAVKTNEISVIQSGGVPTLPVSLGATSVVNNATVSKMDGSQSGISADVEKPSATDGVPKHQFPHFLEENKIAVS
Setting: 8-mer, flanks averaged, mean of replicates
Strand	E-score
AGCGTCCG	-0.278
TGTAGCAA	0.103
GAATCGTA	0.121
TGATCTAA	0.223
AGGGTAGA	-0.0892
CAATCCAA	0.0894
CACGTAGC	-0.285
TGTAGGAA	0.119
GTAAGGTA	0.214
CTGAACGC	-0.22
ACTCAAGC	-0.0196
AATATCAA	0.372
CGCGGGAC	-0.237
ATTTATCA	0.299
CAGATTCG	0.0105
ACACAACC	-0.0682
ACGATGAA	0.22
ACCTGCCA	-0.103
ACGCGCCG	-0.34
CGCAGGGA	-0.211
AGACGGCG	-0.282

Sample 4 — technique: RNA Bind-n-Seq; molecule type: RNA; medium: in vitro; tested at: 365 nM; reference: no-protein control; direction: higher = stronger binding
Target: RNA binding protein fox-1 homolog 2, RRM domain, GST-SBP tag (RBFOX2, Homo sapiens, UniProt O43251-10, residues 100-194)
Setting: natural RNA segment, single round, ends assumed
Target sequence (chain): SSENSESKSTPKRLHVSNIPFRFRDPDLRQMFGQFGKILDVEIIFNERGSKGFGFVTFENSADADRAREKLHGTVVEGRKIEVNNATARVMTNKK
Strand	RBNS enrichment (R)
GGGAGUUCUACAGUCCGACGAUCGUCCUUUGCCAUGAGGAAAAAGUGGUUUUUUGCUUCAUAUGGUAAAUCUAUAUUAUUCAUAUUGAAUGUAUUAACAGAUAAUGGUGCAAAAGCAUUCUUCCCAGGGGAAGUGGAAUUCUCGGGUGCCAA	0.464
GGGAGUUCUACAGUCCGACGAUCAAAGCUUCCGUAGUGCAUUGGUAUGGAUUAAAUGCAUAAAAUAUUCUUAGACUCGAUGCUGUAUAAAAUAUUAUGGGAAAAAAAGAAAAUACGUUAUUUUGCCUCUAAACUGGAAUUCUCGGGUGCCAA	1.49
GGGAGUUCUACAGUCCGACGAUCCUUGUUGACAGAAUGAGACCCUGUGGAAAAAAAAAAAAAAGCCCUCCCAUGCCAGAACAGAGGAUGGCAGUCUGUUUCAAUAAGACACUGUGUCCUUGGUGUUGGUUCUGUGGAAUUCUCGGGUGCCAA	0.761
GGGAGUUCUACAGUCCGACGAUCAAACAUCUACUUCUCAGUCUAAGGCACACUAAGUACUAGUAGCAAGCCUGUGAGCCUAGGAGACUGUGUGUGUGAGGUAAAGGGUGUAGUGGUGGCCUGGGCUGCUGAUGUGGAAUUCUCGGGUGCCAA	0.867
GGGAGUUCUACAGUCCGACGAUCGAAAGUCCUGUUGAAAUGAACAAUUGUCUGCCCCACAAUCAAGAAUGUAUGUGUAAAGUGUGAAUAAAUCUCAUAUCAAAUGUCAAACUUUUACAUGUGAAUGAUUUUCUUGGAAUUCUCGGGUGCCAA	1.14
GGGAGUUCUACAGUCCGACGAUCAAAGGCCACCUGUCCCACUCCUACGAUACGCUACUAUAAAGAGAAGACGAAAUAGUGACAUAAUAUAUUCUAUUUUUAUACUCUUCCUAUUUUUGUAGUGACCUGUUUAUUGGAAUUCUCGGGUGCCAA	0.271
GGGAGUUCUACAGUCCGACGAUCUACUCAGAUUGACCAUAUGGGUUUUUUCUUUUUCUUUCUUUUAUUCUUCUCCUUCUUUUUUUUUCAGAGGUGGGAUGGGUGGAGAUUUUUUAAAAAUCCCACGUGUGAAAUGGAAUUCUCGGGUGCCAA	0.422
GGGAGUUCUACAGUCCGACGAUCAUCGGAGCUCUUUCCUUUGAUAGAGAGAACAGCCCCAAUGAUCCUGGCUUUUUCACUGAACGUAUCAGAAUACAUGGAUGAAUUGGGGUAAAUAAGGUUUUAAUUCAGAUUGGAAUUCUCGGGUGCCAA	0.564
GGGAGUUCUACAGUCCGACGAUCGGAGAGAAUGGCUGGGUGCUGGGGAGUUCCCCCCUCCGAGCCCUCCUUCCCGGCCCAACCUGAGGGAUGUGGAUUUGGGACUGUCUGGGGGCCCCUCCUGCAGCGAGGAUUGGAAUUCUCGGGUGCCAA	0.452
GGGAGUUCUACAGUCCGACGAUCGUUUGUAUGUAUCCUUAUCAAAUAUAUUCUAUAAGGAAAUAAAAUCUGAAAAGUGACUUUCUUAUUGACCUACGUUUCUGAAAGUAUGUGAAUUAAAGAAUUUAAAAUUAUGGAAUUCUCGGGUGCCAA	0.575
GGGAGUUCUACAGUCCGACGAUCAGGGUCAUUUGAAAGCUUCAGCCUCAGAAUGUGACCUUUAGUCAGGGCUGCAGAUAAAAAUAGGCAGGAAUCAAAUGACUAAGAAUGUAAUAGGGAAGAAGUGCCCUGCCUGGAAUUCUCGGGUGCCAA	3.67
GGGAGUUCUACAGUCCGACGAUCGCAUCCCAAACAUUGCCAGGAGGCUUCCCUGGACCCCAGCGAGACCCUGGCCUCUCUUGUCUGCACGCCUCAUGUGGCCACUGGGAUUUGAGGGUCCACAGUGAACCUUGUGGAAUUCUCGGGUGCCAA	3.74

Sample 5 — technique: protein binding microarray; molecule type: double-stranded DNA, one strand shown; medium: in vitro; tested at: not given; reference: not given; direction: higher = stronger binding
Target: Histone acetyltransferase KAT6A, winged helix 1, GST fusion (KAT6A, Homo sapiens, UniProt Q92794, residues 1-85)
Setting: 8-mer, flanks averaged, mean of 2 arrays, mostly near background
Construct (chain): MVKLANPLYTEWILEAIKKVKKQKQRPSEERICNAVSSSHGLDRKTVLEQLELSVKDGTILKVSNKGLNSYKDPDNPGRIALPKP
Strand	E-score
ATGGTGTA	-0.0876
ATAAAACG	0.121
AACGTGCG	0.143
ACCAATGG	-0.158
GGGTCTAA	-0.0994
CCCAGAAG	-0.186
AAGGCGAT	-0.0126
ATATATGC	-0.112
GAACCAAA	-0.171
CAATATAG	-0.0792
ATATGCCG	0.35
GTTACTTA	-0.0274
CTTATCTC	-0.193
ACTCAAGT	-0.308
GAGGTGAA	-0.0438
ATTCCGCA	-0.0568
ATTTGAAC	-0.0562
ATGATGGC	-0.0115
GGACACTA	-0.0935
CTTAATGA	-0.106
GAATCGCC	0.215
CGATTGTA	-0.0283
CTATAATC	-0.116
ATTGTGGG	-0.223
GGAAGCGA	0.0834

Sample 6 — target: CREB3L1, bZIP domain (human); technique: DHFR protein complementation; medium: yeast; reference: wild-type JUN-FOS pair; direction: higher = stronger binding
Setting: single substitutions, most at no-binding floor
Parent: JUN, bZIP domain (human); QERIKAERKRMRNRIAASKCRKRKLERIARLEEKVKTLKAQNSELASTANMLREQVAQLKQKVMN; partner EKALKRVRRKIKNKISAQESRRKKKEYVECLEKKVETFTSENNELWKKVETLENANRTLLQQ
Variant	binding fitness [natural log]
R30L	-1.38
E54M	-1.43
T37W	-1.31
K34R	-1.41
L45W	-1.59
L52N	-1.51
M51R	-1.31
A46V	-1.13
S47G	-1.37
K39F	-1.5
L59H	-1.44
E33M	-1.19
N42E	-1.38
T48C	-1.37
L59G	-1.48
S43K	-1.43
E33T	-1.4
V35T	-1.49
T37N	-1.55

Repeated from above (sample 3):
Strand	E-score
ACTCAAGC	-0.0196
GAATCGTA	0.121
CGCGGGAC	-0.237
TGTAGGAA	0.119
CGCAGGGA	-0.211
ACGATGAA	0.22
ATTTATCA	0.299
CTGAACGC	-0.22
TGTAGCAA	0.103
CACGTAGC	-0.285
AGGGTAGA	-0.0892
AGACGGCG	-0.282
TGATCTAA	0.223
CAGATTCG	0.0105
